Assay results collected from several papers.
Each numbered part is a random draw from the data of one study; scales do not carry over between parts.
Chain of UniProt Q15349 (whole entry, looked up): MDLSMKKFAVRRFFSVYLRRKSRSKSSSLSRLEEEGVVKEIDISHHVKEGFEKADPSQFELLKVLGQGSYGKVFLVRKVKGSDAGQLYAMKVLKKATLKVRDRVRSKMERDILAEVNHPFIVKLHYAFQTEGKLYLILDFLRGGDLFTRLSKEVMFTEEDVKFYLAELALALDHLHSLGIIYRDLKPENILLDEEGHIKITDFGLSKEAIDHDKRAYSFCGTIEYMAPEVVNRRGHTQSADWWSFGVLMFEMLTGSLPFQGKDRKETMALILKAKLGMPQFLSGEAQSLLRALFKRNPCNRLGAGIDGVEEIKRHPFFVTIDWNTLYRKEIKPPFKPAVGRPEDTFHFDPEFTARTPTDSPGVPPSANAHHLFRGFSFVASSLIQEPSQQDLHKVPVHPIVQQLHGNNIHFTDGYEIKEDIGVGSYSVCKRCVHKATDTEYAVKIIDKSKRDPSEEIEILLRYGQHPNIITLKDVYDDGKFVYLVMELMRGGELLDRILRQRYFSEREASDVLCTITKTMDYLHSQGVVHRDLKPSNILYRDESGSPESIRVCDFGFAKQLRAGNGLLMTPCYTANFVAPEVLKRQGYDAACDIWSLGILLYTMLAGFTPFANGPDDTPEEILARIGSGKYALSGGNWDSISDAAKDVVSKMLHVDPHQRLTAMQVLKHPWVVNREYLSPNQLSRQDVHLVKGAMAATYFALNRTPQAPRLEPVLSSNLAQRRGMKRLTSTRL
Chain of UniProt Q8IYT8 (whole entry, looked up): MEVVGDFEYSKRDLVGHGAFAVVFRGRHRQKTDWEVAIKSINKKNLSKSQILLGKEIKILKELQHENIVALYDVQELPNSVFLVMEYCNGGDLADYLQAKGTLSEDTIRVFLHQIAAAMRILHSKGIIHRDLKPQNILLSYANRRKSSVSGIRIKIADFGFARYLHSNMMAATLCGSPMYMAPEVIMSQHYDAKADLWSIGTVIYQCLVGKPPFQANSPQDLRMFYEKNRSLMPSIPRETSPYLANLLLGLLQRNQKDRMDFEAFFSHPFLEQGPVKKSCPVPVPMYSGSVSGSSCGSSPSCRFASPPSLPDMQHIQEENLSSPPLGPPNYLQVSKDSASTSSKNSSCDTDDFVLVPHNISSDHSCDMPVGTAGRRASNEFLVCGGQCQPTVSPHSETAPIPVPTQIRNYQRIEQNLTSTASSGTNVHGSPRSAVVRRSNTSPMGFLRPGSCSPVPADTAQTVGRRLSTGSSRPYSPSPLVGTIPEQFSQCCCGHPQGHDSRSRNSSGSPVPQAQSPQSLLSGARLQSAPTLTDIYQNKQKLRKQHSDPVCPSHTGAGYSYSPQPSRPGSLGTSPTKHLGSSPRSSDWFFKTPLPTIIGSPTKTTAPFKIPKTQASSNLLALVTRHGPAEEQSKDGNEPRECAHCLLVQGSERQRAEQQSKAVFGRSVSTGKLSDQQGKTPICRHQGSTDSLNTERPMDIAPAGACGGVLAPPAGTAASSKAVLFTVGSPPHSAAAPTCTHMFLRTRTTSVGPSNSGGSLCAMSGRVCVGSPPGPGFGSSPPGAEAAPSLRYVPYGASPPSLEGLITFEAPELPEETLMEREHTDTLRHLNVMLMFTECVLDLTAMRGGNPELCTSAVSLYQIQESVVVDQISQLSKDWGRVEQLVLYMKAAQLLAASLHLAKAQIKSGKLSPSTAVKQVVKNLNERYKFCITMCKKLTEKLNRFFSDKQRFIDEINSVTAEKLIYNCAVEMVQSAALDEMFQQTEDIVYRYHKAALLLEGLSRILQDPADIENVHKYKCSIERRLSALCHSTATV
Chain of UniProt Q9UL54 (whole entry, looked up): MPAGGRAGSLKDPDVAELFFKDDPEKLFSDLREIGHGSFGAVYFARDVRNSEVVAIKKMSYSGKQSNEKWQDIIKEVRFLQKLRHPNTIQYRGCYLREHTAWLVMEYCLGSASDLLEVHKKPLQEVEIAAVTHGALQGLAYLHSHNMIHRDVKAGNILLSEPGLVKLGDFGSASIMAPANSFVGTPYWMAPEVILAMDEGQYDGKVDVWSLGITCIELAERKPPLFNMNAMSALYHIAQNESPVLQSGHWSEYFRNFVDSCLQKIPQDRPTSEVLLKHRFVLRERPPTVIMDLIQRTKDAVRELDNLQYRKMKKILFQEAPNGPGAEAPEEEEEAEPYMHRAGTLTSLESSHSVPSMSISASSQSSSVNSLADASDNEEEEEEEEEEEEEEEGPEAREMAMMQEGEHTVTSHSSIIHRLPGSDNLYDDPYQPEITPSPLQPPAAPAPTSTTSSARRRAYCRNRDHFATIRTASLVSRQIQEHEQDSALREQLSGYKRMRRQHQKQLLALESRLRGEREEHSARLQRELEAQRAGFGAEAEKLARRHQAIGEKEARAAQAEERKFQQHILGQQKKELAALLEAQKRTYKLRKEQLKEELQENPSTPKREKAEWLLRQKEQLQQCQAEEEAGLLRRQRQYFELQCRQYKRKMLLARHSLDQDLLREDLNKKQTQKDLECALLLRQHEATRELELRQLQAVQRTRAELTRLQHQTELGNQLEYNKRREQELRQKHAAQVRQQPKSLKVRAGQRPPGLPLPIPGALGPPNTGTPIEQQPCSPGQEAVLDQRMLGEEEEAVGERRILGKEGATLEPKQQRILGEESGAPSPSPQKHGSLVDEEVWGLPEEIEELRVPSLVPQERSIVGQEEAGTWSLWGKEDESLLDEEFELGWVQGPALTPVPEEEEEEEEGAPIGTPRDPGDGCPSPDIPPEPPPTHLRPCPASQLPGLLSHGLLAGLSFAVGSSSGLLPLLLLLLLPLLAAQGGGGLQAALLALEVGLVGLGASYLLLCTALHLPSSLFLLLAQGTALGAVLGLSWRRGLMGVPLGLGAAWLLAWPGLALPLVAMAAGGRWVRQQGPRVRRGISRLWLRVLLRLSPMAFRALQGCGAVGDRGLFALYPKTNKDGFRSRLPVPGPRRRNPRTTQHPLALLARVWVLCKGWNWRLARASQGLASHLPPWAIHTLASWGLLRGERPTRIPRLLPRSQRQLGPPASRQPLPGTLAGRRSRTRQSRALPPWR
Chain of UniProt P52333 (whole entry, looked up): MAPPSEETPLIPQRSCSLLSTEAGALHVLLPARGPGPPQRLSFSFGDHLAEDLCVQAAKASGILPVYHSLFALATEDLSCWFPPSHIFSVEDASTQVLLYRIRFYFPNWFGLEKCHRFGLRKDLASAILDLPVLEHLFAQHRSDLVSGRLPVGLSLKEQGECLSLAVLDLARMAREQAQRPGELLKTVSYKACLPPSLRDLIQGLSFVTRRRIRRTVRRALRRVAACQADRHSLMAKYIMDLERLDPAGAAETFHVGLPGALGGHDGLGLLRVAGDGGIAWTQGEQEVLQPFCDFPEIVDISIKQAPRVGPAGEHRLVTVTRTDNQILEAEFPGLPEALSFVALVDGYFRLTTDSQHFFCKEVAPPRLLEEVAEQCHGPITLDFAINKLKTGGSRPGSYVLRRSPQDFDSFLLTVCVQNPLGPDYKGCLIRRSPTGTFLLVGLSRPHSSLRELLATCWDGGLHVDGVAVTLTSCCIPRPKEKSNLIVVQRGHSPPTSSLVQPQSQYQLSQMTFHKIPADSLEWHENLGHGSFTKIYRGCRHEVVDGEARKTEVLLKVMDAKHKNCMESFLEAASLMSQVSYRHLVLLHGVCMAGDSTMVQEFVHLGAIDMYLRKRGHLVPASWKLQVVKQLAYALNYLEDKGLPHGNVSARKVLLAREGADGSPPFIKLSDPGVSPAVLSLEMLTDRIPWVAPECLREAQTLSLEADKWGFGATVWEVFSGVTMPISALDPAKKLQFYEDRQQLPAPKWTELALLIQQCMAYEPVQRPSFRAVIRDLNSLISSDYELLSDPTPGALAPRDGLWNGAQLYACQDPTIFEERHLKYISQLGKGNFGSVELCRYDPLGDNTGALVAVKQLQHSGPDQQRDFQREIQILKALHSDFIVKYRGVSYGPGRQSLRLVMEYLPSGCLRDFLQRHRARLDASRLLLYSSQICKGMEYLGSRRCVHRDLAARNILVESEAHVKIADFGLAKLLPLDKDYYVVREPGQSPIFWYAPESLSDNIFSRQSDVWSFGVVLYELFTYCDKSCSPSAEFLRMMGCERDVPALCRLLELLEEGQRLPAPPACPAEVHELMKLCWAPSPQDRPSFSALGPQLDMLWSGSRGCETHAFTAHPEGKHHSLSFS
Chain of UniProt P10398 (whole entry, looked up): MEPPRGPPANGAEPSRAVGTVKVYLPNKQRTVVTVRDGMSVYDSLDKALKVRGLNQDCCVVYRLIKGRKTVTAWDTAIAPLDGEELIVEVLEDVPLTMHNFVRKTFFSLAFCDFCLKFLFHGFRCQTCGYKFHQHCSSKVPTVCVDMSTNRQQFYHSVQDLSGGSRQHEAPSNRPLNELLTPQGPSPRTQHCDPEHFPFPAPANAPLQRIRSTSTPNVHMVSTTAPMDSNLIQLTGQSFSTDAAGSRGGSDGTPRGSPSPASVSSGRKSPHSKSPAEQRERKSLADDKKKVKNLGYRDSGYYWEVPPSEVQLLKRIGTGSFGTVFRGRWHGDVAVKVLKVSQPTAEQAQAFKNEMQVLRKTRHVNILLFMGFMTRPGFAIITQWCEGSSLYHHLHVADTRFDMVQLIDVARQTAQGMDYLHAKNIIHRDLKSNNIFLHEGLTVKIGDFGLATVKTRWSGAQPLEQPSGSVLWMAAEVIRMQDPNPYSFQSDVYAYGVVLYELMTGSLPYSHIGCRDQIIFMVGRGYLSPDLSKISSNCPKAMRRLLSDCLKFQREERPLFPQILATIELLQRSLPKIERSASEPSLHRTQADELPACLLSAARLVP
Chain of UniProt Q9HC98 (whole entry, looked up): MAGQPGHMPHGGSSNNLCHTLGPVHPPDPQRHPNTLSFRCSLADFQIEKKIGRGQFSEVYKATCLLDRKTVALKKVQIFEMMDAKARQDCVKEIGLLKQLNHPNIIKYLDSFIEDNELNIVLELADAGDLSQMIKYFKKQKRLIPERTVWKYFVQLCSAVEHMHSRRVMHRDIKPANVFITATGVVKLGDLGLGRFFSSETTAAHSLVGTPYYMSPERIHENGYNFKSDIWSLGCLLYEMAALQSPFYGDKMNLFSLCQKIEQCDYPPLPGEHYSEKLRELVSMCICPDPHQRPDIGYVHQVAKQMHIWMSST

Study 1 — cell line: HaCaT; tested at: 100 µM; time: 36 h
The viability of `O=C(NC[C@H]1CN(c2ccc(N3CCOCC3=O)cc2)C(=O)O1)c1ccc(Cl)s1` is reported as 116%.
For `CCOC(=O)CC(=O)N1CCSC1COc1ccccc1OC` (centres unmarked), the viability was 89.7%.
`COC(=O)N[C@H](C(=O)N1CCC[C@H]1c1nc(-c2ccc(-c3ccc(-c4c[nH]c([C@@H]5CCCN5C(=O)[C@@H](NC(=O)OC)C(C)C)n4)cc3)cc2)c[nH]1)C(C)C` has a viability of 11.9%.

Study 2 — cell line: mouse MPNST tumor cells; method: high-content immunofluorescence imaging; measured: nuclear SOX9; tested at: 10 µM; time: 12 h; setting: mean of 2 replicates; baseline: DMSO control; direction: higher = more nuclear SOX9
`O=S(=O)(NC1CCNCC1)c1cc(S(=O)(=O)c2ccccc2)ccc1C(F)(F)F` — result for “nuclear SOX9 intensity”: 92.8 % of DMSO.
`CCC(=O)O[C@@H](O[P@](=O)(CCCCc1ccccc1)CC(=O)N1C[C@H](C2CCCCC2)C[C@H]1C(=O)O)C(C)C` — result for “nuclear SOX9 intensity”: 89.3 % of DMSO.
For `CCN1CCN(C(=O)N[C@@H](C(=O)N[C@@H]2C(=O)N3[C@@H]2SC(C)(C)[C@@H]3C(=O)O)c2ccccc2)C(=O)C1=O`, “nuclear SOX9 intensity” read 93.7 % of DMSO.
Under “nuclear SOX9 intensity”, `COc1cccc(OC)c1C(=O)N[C@@H]1C(=O)N2[C@@H]1SC(C)(C)[C@@H]2C(=O)O` is recorded as 97.4 % of DMSO.

Study 3 — read-out: cell-free assay; method: competition with immobilised ligand; tested at: 1 µM
Structure (SMILES): CS(=O)(=O)NCC[C@H](NC(=O)c1cncc2c1cnn2-c1ccc(F)cc1)c1ccnc(S(C)(=O)=O)c1
It gave 100% for remaining binding (Ribosomal protein S6 kinase alpha-2, N-terminal kinase domain (RPS6KA2, Homo sapiens, UniProt Q15349)).
It gave 100% for remaining binding (BMPR1B (Homo sapiens, UniProt O00238)).
It gave 80% for remaining binding (TAOK3 (Homo sapiens, UniProt Q9H2K8)).

Study 4 — method: protein-binding microarray; form: double-stranded DNA, one strand shown; sample: in vitro; tested at: not given; direction: higher = stronger binding
Target: Hepatocyte nuclear factor 3-beta, forkhead domain (FOXA2, Homo sapiens, UniProt Q9Y261, residues 142-269)
Setting: k-mer, scored over probes, only values ≥0.25
Residues (chain): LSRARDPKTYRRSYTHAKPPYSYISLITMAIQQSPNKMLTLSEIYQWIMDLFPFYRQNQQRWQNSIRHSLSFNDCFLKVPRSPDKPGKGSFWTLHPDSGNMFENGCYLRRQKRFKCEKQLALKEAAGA
With `AAATACAA` the E-score was 0.348.
For `GTATTATA`, the E-score was 0.329.
For `AGATACAT`, the E-score was 0.254.
The E-score of `TGTAGTAA` is reported as 0.269.
The E-score of `ACGTAAAA` is reported as 0.268.
With `CTTGTAAC` the E-score was 0.361.
`GACTATAC` has an E-score of 0.283.
`GGATGTAA` gave an E-score of 0.254.

Study 5 — method: Phase 2a trial; species: idiopathic pulmonary fibrosis patients
Compound: CC(C)n1cnc(-c2ccc(F)cc2)c1-c1ncc(C(=O)Nc2ccc(N3CCN(C)CC3)cc2)[nH]1
measured: tri-iodothyronine increased; 30 mg once daily, grade 5 maximum intensity — “patients with adverse events”: 0%.
measured: chest discomfort; 60 mg once daily, grade 5 maximum intensity — “patients with adverse events”: 0%.
For measured: bile acids increased; 30 mg once daily, grade 2 maximum intensity: “patients with adverse events” read 0%.

Study 6 — read-out: enzyme activity; action: inhibitor; tested at: 0.5 µM; baseline: control
Structure (SMILES): COc1cc2c(N3CCN(C(=O)Nc4ccc(OC(C)C)cc4)CC3)ncnc2cc1OCCCN1CCCCC1
The remaining activity was 102% (TAOK2 (Homo sapiens, UniProt Q9UL54)).
For MST1R (Homo sapiens, UniProt Q04912): remaining activity read 99.2%.
JAK3 (Homo sapiens, UniProt P52333) — remaining activity: 99.8%.
ACVR1B (Homo sapiens, UniProt P36896) — remaining activity: 101%.
For ARAF (Homo sapiens, UniProt P10398): remaining activity read 103%.
MAP2K2 (Homo sapiens, UniProt P36507) — remaining activity: 116%.
It gave 98.6% for remaining activity (MAP3K14 (Homo sapiens, UniProt Q99558)).
TBK1 (Homo sapiens, UniProt Q9UHD2) — remaining activity: 97.2%.
The remaining activity was 106% (MAPK3 (Homo sapiens, UniProt P27361)).
For NEK6 (Homo sapiens, UniProt Q9HC98): remaining activity read 87.4%.
It gave 96.6% for remaining activity (MAP3K5 (Homo sapiens, UniProt Q99683)).
The remaining activity was 97.5% (WEE1 (Homo sapiens, UniProt P30291)).
FRK (Homo sapiens, UniProt P42685) — remaining activity: 101%.
It gave 100% for remaining activity (ULK2 (Homo sapiens, UniProt Q8IYT8)).
NEK1 (Homo sapiens, UniProt Q96PY6) — remaining activity: 119%.
It gave 98.1% for remaining activity (GSK3B (Homo sapiens, UniProt P49841)).
For RPS6KA2 (Homo sapiens, UniProt Q15349): remaining activity read 98.6%.
For MAPKAPK2 (Homo sapiens, UniProt P49137): remaining activity read 100%.
For FGFR3 (Homo sapiens, UniProt P22607): remaining activity read 93.2%.
CSNK1G2 (Homo sapiens, UniProt P78368) — remaining activity: 95.5%.
It gave 101% for remaining activity (FGFR1 (Homo sapiens, UniProt P11362)).
The remaining activity was 94.7% (EPHA3 (Homo sapiens, UniProt P29320)).
It gave 99.6% for remaining activity (TEK (Homo sapiens, UniProt Q02763)).

Single results of other studies — species: human; sample: microsomes or S9; tested at: 2 µM; time: 0.5 h
`c1csc(COc2ccc(CNn3cnnc3)cc2)c1` has a remaining compound of 84.8%.
The remaining compound of `CCN(CCCN(C)C)S(=O)(=O)c1ccc(S(=O)(=O)CC)cc1` is reported as 90.9%.
`Cn1cnc(S(=O)(=O)N2CCC(Oc3nccnc3C#N)C2)c1` (centres unmarked) has a remaining compound of over 99%.

Some of these lines once more (study 5):
measured: tri-iodothyronine increased; 30 mg once daily, grade 5 maximum intensity — “patients with adverse events”: 0%.
measured: chest discomfort; 60 mg once daily, grade 5 maximum intensity — “patients with adverse events”: 0%.
For measured: bile acids increased; 30 mg once daily, grade 2 maximum intensity: “patients with adverse events” read 0%.
